Experimental data collected from several papers.
Protocols differ between the studies behind these lines. Values joined by “and” are separate records of one study, mostly repeats; a detail may differ. ± gives the spread as reported.
WEE1/CRBN: WEE1/CRBN (Homo sapiens, UniProt P30291+Q96SW2)
RPA1 N-terminal domain: Replication protein A 70 kDa DNA-binding subunit, N-terminal domain (RPA1, Homo sapiens, UniProt P27694)
OPN4: Melanopsin (OPN4, Homo sapiens, UniProt Q9UHM6)

Protein sequences, listed by entry. Tags and fused reporters are not part of them.
UniProt P30291, whole entry: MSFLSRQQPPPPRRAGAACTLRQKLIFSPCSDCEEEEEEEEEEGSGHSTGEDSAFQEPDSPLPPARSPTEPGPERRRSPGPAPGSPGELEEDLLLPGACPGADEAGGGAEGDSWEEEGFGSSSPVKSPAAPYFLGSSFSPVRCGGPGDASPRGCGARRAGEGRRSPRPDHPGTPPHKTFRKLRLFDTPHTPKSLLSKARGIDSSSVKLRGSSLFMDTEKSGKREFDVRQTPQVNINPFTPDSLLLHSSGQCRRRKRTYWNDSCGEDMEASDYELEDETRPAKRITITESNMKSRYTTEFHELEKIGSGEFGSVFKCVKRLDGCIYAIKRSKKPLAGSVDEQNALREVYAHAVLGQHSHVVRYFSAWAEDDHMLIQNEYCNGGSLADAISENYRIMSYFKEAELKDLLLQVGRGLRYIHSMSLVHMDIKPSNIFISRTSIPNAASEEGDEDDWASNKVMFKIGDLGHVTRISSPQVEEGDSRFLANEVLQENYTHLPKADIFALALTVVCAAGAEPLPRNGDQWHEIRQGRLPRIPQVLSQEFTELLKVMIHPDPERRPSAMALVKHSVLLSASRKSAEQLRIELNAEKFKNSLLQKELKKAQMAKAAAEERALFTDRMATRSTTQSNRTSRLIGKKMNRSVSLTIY
UniProt Q96SW2, whole entry: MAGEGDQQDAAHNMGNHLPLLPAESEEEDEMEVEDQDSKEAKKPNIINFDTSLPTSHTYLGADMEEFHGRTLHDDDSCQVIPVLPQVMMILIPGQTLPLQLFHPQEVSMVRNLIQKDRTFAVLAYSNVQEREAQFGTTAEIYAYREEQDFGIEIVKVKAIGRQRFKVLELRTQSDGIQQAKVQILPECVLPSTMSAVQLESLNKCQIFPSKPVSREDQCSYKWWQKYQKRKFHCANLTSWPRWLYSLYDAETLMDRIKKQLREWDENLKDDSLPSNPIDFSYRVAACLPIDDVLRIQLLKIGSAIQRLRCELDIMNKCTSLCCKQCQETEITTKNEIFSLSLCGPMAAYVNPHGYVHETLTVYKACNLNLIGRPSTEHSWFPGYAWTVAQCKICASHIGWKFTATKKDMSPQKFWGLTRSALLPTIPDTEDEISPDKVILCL
UniProt Q9UHM6, whole entry: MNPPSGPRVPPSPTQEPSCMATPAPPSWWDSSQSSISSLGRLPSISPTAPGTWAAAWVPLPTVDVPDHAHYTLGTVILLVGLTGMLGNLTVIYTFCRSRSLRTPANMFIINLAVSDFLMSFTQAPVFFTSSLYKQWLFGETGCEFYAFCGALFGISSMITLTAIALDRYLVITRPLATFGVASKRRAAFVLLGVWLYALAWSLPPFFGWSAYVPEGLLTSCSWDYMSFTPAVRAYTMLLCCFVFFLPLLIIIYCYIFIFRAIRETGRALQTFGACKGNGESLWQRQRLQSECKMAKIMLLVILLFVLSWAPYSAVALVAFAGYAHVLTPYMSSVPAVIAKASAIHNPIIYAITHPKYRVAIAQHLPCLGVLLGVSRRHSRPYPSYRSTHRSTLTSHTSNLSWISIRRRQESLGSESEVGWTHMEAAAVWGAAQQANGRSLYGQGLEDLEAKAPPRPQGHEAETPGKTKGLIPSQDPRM
UniProt Q02750, whole entry: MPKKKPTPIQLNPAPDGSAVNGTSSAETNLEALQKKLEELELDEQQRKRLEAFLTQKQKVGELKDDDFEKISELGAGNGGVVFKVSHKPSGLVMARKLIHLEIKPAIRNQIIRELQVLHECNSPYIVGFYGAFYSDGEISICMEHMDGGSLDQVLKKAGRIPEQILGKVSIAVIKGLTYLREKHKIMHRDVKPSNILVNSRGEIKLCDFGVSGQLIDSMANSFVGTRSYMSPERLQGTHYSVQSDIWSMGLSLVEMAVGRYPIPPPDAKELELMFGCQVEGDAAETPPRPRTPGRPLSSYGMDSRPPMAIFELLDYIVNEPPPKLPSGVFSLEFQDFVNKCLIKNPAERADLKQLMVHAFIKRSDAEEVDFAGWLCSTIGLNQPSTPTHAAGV
UniProt Q923Y8, whole entry T268M: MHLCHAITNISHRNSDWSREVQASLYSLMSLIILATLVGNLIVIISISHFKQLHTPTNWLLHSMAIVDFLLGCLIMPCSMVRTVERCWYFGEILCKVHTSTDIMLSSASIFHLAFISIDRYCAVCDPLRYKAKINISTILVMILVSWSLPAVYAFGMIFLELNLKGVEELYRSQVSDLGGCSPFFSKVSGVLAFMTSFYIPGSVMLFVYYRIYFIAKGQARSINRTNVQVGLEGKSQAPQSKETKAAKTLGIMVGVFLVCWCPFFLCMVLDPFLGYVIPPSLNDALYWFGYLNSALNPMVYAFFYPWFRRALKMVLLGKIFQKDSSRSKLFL
UniProt O60502, whole entry: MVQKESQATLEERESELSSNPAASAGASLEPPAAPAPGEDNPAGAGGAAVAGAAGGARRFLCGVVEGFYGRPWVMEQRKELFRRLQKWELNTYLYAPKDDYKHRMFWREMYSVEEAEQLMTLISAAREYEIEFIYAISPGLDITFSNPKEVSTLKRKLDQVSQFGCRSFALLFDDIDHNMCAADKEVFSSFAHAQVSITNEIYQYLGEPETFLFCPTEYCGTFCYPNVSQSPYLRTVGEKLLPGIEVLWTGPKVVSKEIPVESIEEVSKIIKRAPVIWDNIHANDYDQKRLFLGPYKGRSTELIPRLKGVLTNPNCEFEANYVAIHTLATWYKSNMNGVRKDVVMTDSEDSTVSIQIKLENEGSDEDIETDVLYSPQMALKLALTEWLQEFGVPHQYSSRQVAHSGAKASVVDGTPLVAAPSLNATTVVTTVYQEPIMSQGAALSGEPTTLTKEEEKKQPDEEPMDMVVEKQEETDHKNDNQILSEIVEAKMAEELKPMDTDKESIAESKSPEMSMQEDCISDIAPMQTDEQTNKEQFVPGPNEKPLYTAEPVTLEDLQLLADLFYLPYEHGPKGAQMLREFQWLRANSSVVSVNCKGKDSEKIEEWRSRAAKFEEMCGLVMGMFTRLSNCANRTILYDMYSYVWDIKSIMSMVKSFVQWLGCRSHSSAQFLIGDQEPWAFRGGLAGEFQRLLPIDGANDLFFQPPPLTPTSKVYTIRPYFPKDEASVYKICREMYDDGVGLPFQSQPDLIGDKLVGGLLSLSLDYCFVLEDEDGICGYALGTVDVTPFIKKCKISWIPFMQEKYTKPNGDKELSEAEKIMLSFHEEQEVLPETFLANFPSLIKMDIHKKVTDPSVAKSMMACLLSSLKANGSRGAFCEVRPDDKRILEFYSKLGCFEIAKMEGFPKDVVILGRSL
UniProt Q923Y9, whole entry: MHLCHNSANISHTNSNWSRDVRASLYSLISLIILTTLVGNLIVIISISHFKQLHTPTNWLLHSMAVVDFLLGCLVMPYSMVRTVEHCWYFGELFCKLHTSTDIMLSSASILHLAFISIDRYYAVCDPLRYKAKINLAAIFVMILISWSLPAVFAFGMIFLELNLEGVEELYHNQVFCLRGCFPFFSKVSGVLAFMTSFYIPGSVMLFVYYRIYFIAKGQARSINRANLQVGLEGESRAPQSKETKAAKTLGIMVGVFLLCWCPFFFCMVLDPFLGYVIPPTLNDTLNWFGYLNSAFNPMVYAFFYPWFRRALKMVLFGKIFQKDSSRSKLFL
UniProt Q07817, whole entry: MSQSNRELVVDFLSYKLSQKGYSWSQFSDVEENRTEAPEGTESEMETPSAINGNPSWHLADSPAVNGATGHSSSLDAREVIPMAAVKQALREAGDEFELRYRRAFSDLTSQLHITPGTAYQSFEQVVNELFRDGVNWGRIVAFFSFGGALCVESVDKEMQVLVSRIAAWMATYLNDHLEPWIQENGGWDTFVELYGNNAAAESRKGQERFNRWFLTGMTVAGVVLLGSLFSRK
UniProt Q86U86, whole entry L207V, looked up: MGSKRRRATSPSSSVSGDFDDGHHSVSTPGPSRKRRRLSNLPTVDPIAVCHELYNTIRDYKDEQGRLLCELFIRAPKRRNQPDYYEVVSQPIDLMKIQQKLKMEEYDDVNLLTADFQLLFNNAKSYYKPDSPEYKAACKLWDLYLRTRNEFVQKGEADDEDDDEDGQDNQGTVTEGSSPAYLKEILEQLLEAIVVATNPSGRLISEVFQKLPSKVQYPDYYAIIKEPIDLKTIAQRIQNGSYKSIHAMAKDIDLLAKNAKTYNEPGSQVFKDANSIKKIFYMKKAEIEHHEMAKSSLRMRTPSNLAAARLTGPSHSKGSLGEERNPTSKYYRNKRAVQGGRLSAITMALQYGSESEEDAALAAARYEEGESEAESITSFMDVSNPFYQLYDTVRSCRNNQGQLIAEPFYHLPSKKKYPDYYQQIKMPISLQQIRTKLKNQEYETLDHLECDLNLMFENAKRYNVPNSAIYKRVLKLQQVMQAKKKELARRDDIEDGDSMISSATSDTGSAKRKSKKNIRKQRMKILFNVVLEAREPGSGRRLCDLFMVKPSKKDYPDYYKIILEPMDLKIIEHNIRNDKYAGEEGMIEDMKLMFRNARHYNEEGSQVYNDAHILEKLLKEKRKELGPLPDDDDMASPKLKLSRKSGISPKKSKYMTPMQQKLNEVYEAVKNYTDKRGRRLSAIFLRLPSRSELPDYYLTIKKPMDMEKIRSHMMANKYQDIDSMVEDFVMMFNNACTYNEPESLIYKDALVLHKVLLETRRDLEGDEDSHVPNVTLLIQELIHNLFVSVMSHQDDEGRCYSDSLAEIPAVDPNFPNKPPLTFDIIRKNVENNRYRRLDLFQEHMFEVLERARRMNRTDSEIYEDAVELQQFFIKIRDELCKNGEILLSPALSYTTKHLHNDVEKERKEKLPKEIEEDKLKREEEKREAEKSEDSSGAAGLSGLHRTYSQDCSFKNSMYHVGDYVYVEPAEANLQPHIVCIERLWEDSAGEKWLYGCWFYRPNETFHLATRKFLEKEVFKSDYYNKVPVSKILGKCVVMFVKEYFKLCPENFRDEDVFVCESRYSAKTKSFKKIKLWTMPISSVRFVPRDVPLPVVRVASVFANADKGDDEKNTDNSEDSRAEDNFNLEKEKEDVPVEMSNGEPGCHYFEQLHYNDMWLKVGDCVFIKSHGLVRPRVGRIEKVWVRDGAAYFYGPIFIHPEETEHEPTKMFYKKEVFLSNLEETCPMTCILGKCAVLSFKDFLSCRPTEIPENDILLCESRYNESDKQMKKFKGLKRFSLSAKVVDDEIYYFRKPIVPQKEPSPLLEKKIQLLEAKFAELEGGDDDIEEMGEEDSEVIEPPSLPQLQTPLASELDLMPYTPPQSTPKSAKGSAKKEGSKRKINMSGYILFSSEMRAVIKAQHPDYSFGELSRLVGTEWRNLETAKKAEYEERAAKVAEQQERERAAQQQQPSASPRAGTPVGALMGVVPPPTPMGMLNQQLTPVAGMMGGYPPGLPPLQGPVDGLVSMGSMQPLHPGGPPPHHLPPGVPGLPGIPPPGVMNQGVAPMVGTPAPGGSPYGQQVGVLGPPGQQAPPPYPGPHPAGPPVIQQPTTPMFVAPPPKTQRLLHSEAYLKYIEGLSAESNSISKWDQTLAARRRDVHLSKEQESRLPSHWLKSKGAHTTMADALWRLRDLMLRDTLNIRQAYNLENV

For `O=C1CCC(N2Cc3cc(-c4nc5ccccn5c4Cl)ccc3C2=O)C(=O)N1` (stereo not drawn), the DC50 was 10 ± 8 nM (WEE1/CRBN; degrader, HiBiT luciferase; Jurkat (HiBiT-tagged); 5 h).
For `Cc1c(=O)n(C)c(Nc2ccc(I)cc2F)c2c(=O)n(C3CC3)c(=O)n(-c3cccc(NC(=O)CCOCCOCCNC(=O)CCC4=[N+]5C(=Cc6ccc(-c7ccc[nH]7)n6[B-]5(F)F)C=C4)c3)c12`, the EC50 was 5.6 ± 0.6 nM (MAP2K1 (Homo sapiens, UniProt Q02750); binding, NanoBRET; HEK-293T; MEK1-NanoLuc alone).
The Kd of `Cc1ccc(C(=O)Nc2ccc(C(C)C)cc2C(=O)O)cc1S(=O)(=O)Nc1ccc(Br)cc1` is reported as 9000 ± 540 nM (RPA1 N-terminal domain; binding, fluorescence polarisation competition; added: FITC-ATRIP probe).
The EC50 of `NCC(c1ccccc1)c1cccc(Oc2ccccc2)c1` (stereo not drawn) is reported as > 10000 nM (Taar1 (Mus musculus, UniProt Q923Y8, T268M); cAMP, agonist; mouse receptor mutant).
With `Cc1cc(S(=O)(=O)N2CCCCC2)ccc1Cl` the Kb was 260 nM (OPN4; calcium release, antagonist, FLIPR Fluo-4; CHO cells expressing human OPN4).
With `Cc1ccc(C(=O)Nc2ccc(F)cc2C(=O)O)cc1S(=O)(=O)Nc1ccc(Cl)c(Cl)c1` the Kd was 15000 ± 1000 nM (RPA1 N-terminal domain; binding, fluorescence polarisation competition; added: FITC-ATRIP probe).
With `CC(C)(C)Nc1c(-c2ccc3c(c2)C(=O)N(C2CCC(=O)NC2=O)C3=O)nc2ccccn12` (stereo not drawn) the DC50 was 8.6 ± 2.5 nM (WEE1/CRBN; degrader, HiBiT luciferase; Jurkat (HiBiT-tagged); 5 h).
With `CN1CCN(S(=O)(=O)c2cc(Cl)ccc2Cl)CC1` the Kb was 13000 nM (OPN4; calcium release, antagonist, FLIPR Fluo-4; CHO cells expressing human OPN4).
`CCc1ccc(NS(=O)(=O)c2cc(C(=O)Nc3ccccc3C(=O)O)ccc2C)cc1` gave a Kd of 95000 ± 6500 nM (RPA1 N-terminal domain; binding, fluorescence polarisation competition; added: FITC-ATRIP probe).
`CC(=O)Nc1ncc(CN2CC[C@H](Oc3cccc(F)n3)C[C@@H]2C)s1` [isotope labelled] has a Kd of 2.2 ± 0.4 nM (Protein O-GlcNAcase (OGA, Homo sapiens, UniProt O60502); saturation binding; human cortex homogenate; radiolabelled compound).
`NCC(c1ccc(O)cc1)c1ccc(Oc2ccccc2)cc1` (stereo not drawn) gave an EC50 of 6 ± 1 nM (Trace amine-associated receptor 1 (Rattus norvegicus, UniProt Q923Y9); cAMP production, agonist; HEK293).
`O=C1CCC(N2Cc3cc(-c4nc5ccccn5c4NC45CC6CC(CC(C6)C4)C5)ccc3C2=O)C(=O)N1` (stereo not drawn) gave a DC50 of < 2 nM and 1.5 nM (WEE1/CRBN; degrader, HiBiT luciferase; Jurkat (HiBiT-tagged); 5 h).
With `Cc1ncsc1-c1ccc([C@H](C)NC(=O)[C@@H]2C[C@@H](O)CN2C(=O)[C@@H](NC(=O)CCCCCCC(=O)N2CCN(C[C@]3(C)CCC(c4ccc(Cl)cc4)=C(CN4CCN(c5ccc(C(=O)NS(=O)(=O)c6ccc(N[C@H](CCN7CCOCC7)CSc7ccccc7)c(S(=O)(=O)C(F)(F)F)c6)cc5)CC4)C3)CC2)C(C)(C)C)cc1` the DC50 was 2.81 nM (BCL2L1 (Homo sapiens, UniProt Q07817); protein degradation, degrader, western blot; WI-38 irradiation-induced senescent).
The DC50 of `CC(C)(C)CC(C)(C)Nc1c(-c2ccc3c(c2)C(=O)N(C2CCC(=O)NC2=O)C3=O)nc2ccccn12` (stereo not drawn) is reported as 22 ± 5 nM (WEE1/CRBN; degrader, HiBiT luciferase; Jurkat (HiBiT-tagged); 5 h).
The Kd of `CCc1ccc(NC(=O)c2ccc(C)c(S(=O)(=O)Nc3ccc(Br)cc3)c2)c(C(=O)O)c1` is reported as 9000 ± 830 nM (RPA1 N-terminal domain; binding, fluorescence polarisation competition; added: FITC-ATRIP probe).
`Cc1cccc(C2NC(=O)c3c(Cl)cccc3N2)c1` (racemic) has a Kd of 5000 ± 2000 nM (Protein polybromo-1, BD2 (PBRM1, Homo sapiens, UniProt Q86U86, L207V); ITC; mutant, racemate).
With `Cc1ccc(C(=O)Nc2ccccc2C(=O)O)cc1S(=O)(=O)NC1CCCCC1` the Kd was 193000 nM (RPA1 N-terminal domain; binding, fluorescence polarisation competition; added: FITC-ATRIP probe).
`O=C1CCC(N2Cc3cc(-c4nc5ccccn5c4Nc4ccccc4)ccc3C2=O)C(=O)N1` (stereo not drawn) gave a DC50 of 1.9 ± 1.1 nM (WEE1/CRBN; degrader, HiBiT luciferase; Jurkat (HiBiT-tagged); 5 h).

A few entries again:
The Kd of `Cc1ccc(C(=O)Nc2ccc(C(C)C)cc2C(=O)O)cc1S(=O)(=O)Nc1ccc(Br)cc1` is reported as 9000 ± 540 nM (RPA1 N-terminal domain; binding, fluorescence polarisation competition; added: FITC-ATRIP probe).
The EC50 of `NCC(c1ccccc1)c1cccc(Oc2ccccc2)c1` (stereo not drawn) is reported as > 10000 nM (Taar1 (Mus musculus, UniProt Q923Y8, T268M); cAMP, agonist; mouse receptor mutant).
